Experimental data pooled from the literature.
“And” joins repeats or separate records; there may be more than shown.
Target: Dual specificity protein kinase CLK3 (CLK3, Homo sapiens, UniProt P49761)

C=CC(=O)Nc1cc(-c2nn(C3CCN(CCNC(=O)[C@H](C)CCC45CC6CC(CC(C6)C4)C5)CC3)c3ncnc(N)c23)ccc1Oc1ccccc1
inhibition (inhibitor, KiNativ profiling; biochemical; 2 µM): 17%

CN1CCN(Cc2ccc(-c3ccc(CO[C@H]4CCC[C@@H]4NC(=O)c4cc(-c5cnn(C)c5)cnc4N)cc3)cc2)CC1
inhibition (enzyme activity, inhibitor; 0.1 µM): 0%

O=C=[N][Ru-4]123([n]4c5ccc(O)cc5c5c6c(c7cc(F)c[n+]1c7c54)C(=O)NC6=O)[S+]1CC[S+]2CC[S+]3CC1 (centres unmarked)
remaining activity (enzyme activity; 100 nM, human enzyme, added: 10 µM ATP; relative to: untreated): 105%

CNC(=O)C1CCN(c2cc(C)c(F)cc2NC(=O)c2ccc(-c3cc(O)ccc3C)c(C)c2)CC1
remaining binding (binding, competition with immobilised ligand; 1 µM): 88%

Cc1cccc(O[C@H]2CCC[C@@H](C(C)CNCc3ccncc3)C2)c1 (relative stereo)
inhibition (enzyme activity, inhibitor; 10 µM): 0%

O=C(Cc1ccc(OCc2ccccc2)cc1)NC1(C(=O)O)CCN(C(=O)c2ccc(-c3cccc(Cl)c3)cc2)CC1
activity vs control (enzyme activity, inhibitor; 10 µM): 113%

NC(=O)[C@@H](O)C[C@H]1CCc2sc3ncnc(O[C@H]4CC[C@H](N5CCOCC5)CC4)c3c21
inhibition (enzyme activity, inhibitor; 10 µM): 6%

COc1cc(Nc2nc(C)cc(-c3cnn4nc(OC)ccc34)n2)cc(C(F)(F)F)c1
remaining binding (binding, competition with immobilised ligand; 1 µM): 80%

C=CC(=O)N1Cc2nc(-c3cc(-c4cc(Cl)cnc4Cl)c(F)cc3F)n(-c3ccncn3)c2C1
inhibition (cell-free assay, inhibitor; 1 µM): 9.4%

CCN1CCN(Cc2ccc(C(=O)Nc3ccc(C)c(NCc4cnc5[nH]ccc5c4OC)c3)cc2C(F)(F)F)CC1
remaining binding (binding, competition with immobilised ligand; 1 µM): 100%

C=CC(=O)N1CCc2ccc(-n3c(=O)ccc4cnc5ccc(-c6cnn(C)c6)cc5c43)cc21
remaining binding (KINOMEscan; 1 µM; relative to: DMSO control): 100%

Cc1cnc2nc1Nc1cccc(c1)COC/C=C/COCc1cc(ccc1OCCN1CCOCC1)N2
remaining binding (binding; 0.1 µM): 100%

CN1CC[C@@H](COc2cnc(C#N)cc2-c2ccn3nc(NC(=O)C4CC4)cc3c2)C1
inhibition (enzyme activity, inhibitor; 1 µM): 15%

C=CC(=O)Nc1cccc(-c2cnc3[nH]cc(C(=O)NC(C)(C)C)c3n2)c1
inhibition (kinase activity; 0.1 µM): 16% and 15%
